Measurements collected from several papers.
Lines come from different studies, so protocols differ. Values joined by “and” are separate records of one study, mostly repeats; a detail may differ. ± gives the spread as reported.

| Structure (SMILES) | cell line | assay | conditions | how to read | endpoint | result |
| --- | --- | --- | --- | --- | --- | --- |
| Oc1ccc(C(c2ccc(O)cc2)(C(F)(F)F)C(F)(F)F)cc1 | HepG2 spheroids, dissociated | annexin V-FITC/PI flow cytometry | 0.1 µM, 24 h | – | late apoptotic cells | 10.5 ± 4.59% |
| COc1ccc2c(c1)c(CC(=O)O)c(C)n2C(=O)c1ccc(Cl)cc1 | HEK293-H PPARγ-UAS-bla cells | cell confluency, IncuCyte imaging | 24 h, nominal concentration | – | IC10 | 40.4 µM |
| C[C@H](NC(=O)[C@H](Cc1ccc(O)cc1)NC(=O)[C@H](CCCNC(=N)N)NC(=O)[C@H](CCCNC(=N)N)NC(=O)[C@H](CCCNC(=N)N)NC(=O)[C@@H](N)CCCNC(=N)N)C(=O)N[C@@H](CCCNC(=N)N)C(=O)N1CCC[C@H]1C(=O)N[C@@H](Cc1ccc(O)cc1)C(=O)N[C@@H](Cc1ccc(O)cc1)C(=O)N[C@@H](CCCNC(=N)N)C(=O)N[C@@H](CCCNC(=N)N)C(=O)N[C@@H](CCCNC(=N)N)C(=O)O | DF-1 | – | 5 µM, 24 h | relative to: untreated cells | viability | 105.9 ± 0.14% |
| C[C@@H]1O[C@@H](O[C@H]2C[C@@H](O)[C@]3(CO)[C@H]4[C@H](O)C[C@]5(C)[C@@H](C6=CC(=O)OC6)CC[C@]5(O)[C@@H]4CC[C@]3(O)C2)[C@H](O)[C@H](O)[C@H]1O | Jurkat | ATP content | 25 µM, 6 h | – | toxicity | not toxic |
| CC(C)CC(NC(=O)OCc1ccccc1)C(=O)NC(C(=O)NCC(=O)C=[N+]=[N-])C(C)C (stereo not drawn) | 293T-ACE2 | – | 40 (unit not given) | – | CC50 | > 2.5 µM |
| N=C(N)NCCC[C@H](NC(=O)[C@H](CCCNC(=N)N)NC(=O)[C@H](CCCNC(=N)N)NC(=O)[C@H](CCC(N)=O)NC(=O)[C@H](CCCNC(=N)N)NC(=O)[C@H](CCCNC(=N)N)NC(=O)[C@H](CCCCN)NC(=O)[C@H](CCCCN)NC(=O)[C@H](CCCNC(=N)N)NC(=O)CNC(=O)[C@@H](N)Cc1ccc(O)cc1)C(=O)O | DF-1 | – | 25 µM, 48 h | relative to: untreated cells | viability | 98.4 ± 0.81% |
| CN(C)c1ccc(C(Nc2nc3c(-c4ccc([N+](=O)[O-])cc4)nn(-c4ccccc4)c3s2)P(=O)(Oc2ccccc2)Oc2ccccc2)cc1 (stereo not drawn) | Vero cells | SRB | 100 µM, 10% fetal bovine serum | – | viability | 94.5% |
| CCCc1nc(N)[nH]c(=O)c1Br | HEL human embryonic lung fibroblasts | cell morphology alteration | – | – | minimum cytotoxic concentration | > 100 µM |
| O=C(O)C(F)(F)C(F)(F)C(F)(F)C(F)(F)C(F)(F)C(F)(F)C(F)(F)C(F)(F)C(F)(F)C(F)(F)F | hTERT-RPTEC parental | – | concentration not given, 96-well plate | – | LDH release | 27.9 mU/mL and 23.6 mU/mL and 25.9 mU/mL and 19.7 mU/mL |
| CC[C@H](C)[C@H](NC(=O)[C@H](CCCNC(=N)N)NC(=O)[C@H](Cc1c[nH]c2ccccc12)NC(=O)[C@H](CCCNC(=N)N)NC(=O)[C@H](Cc1c[nH]c2ccccc12)NC(=O)[C@H](Cc1c[nH]c2ccccc12)NC(=O)[C@H](Cc1c[nH]c2ccccc12)NC(=O)[C@H](CCCNC(=N)N)NC(=O)[C@H](Cc1c[nH]c2ccccc12)NC(=O)[C@@H](N)CCCNC(=N)N)C(N)=O | HD11 macrophages | – | – | – | LC50 | 289 µM |
| Cc1c(O)c(O)cc2c1CC=C1[C@@]2(C)CC[C@@]2(C)[C@@H]3C[C@](C)(C(=O)O)CC[C@]3(C)CC[C@]12C | MYBPC3 iPSC cardiomyocytes | cytotoxicity | 24 h | – | EC50 | 18 µM |
| CC(c1ccccc1)(c1ccc(O)cc1)c1ccc(O)cc1 | HepG2 spheroids | annexin V-FITC/PI flow cytometry | 10 µM, 24 h | – | late apoptotic cells | 8.26 ± 5.47% |
| O=S(=O)(O)C(F)(F)C(F)(F)C(F)(F)C(F)(F)C(F)(F)C(F)(F)C(F)(F)C(F)(F)F | hTERT-RPTEC parental | – | concentration not given, 96-well plate | – | LDH release | 28.8 mU/mL and 17.1 mU/mL and 26.1 mU/mL and 26.6 mU/mL |
| CC[C@H](C)[C@H](NC(=O)[C@@H](N)CC(N)=O)C(=O)N1CCC[C@H]1C(=O)N1CCC[C@H]1C(=O)N[C@@H](CC(C)C)C(=O)N[C@H](C(=O)N[C@@H](CCC(N)=O)C(=O)N[C@H](C(=O)N1CCC[C@H]1C(=O)N[C@H](C(=O)N[C@H](C(=O)N[C@H](C(=O)N1CCC[C@H]1C(=O)N1CCC[C@H]1C(=O)N[C@@H](Cc1ccccc1)C(=O)N[C@@H](CC(C)C)C(=O)N[C@@H](CCC(N)=O)C(=O)N1CCC[C@H]1C(=O)N[C@@H](CCC(=O)O)C(=O)O)C(C)C)C(C)C)C(C)C)[C@@H](C)O)[C@@H](C)O | Caco-2 monolayers | – | 10 µM, 60 min, 37 °C | – | transport | 0.71 ± 0.17% |
| Fc1ccc(Oc2ccnc3cc(Cl)cc(Cl)c23)cc1 | HEK293-H PPARγ-UAS-bla cells | cell confluency, IncuCyte imaging | 24 h, nominal concentration | – | IC10 | 9.36 µM |
| CC[C@H](C)[C@H](NC(=O)[C@H](CCCNC(=N)N)NC(=O)[C@H](Cc1c[nH]c2ccccc12)NC(=O)[C@H](CCCNC(=N)N)NC(=O)[C@H](Cc1c[nH]c2ccccc12)NC(=O)[C@H](Cc1c[nH]c2ccccc12)NC(=O)[C@H](Cc1c[nH]c2ccccc12)NC(=O)[C@H](CCCNC(=N)N)NC(=O)[C@H](Cc1c[nH]c2ccccc12)NC(=O)[C@H](CCCNC(=N)N)NC(=O)CN)C(N)=O | HD11 macrophages | – | – | – | LC50 | > 512 µM |
| CN(C)CCn1c(C(=O)N2CCN(c3ccccc3Cl)CC2)c(C(c2ccc(O)cc2)c2ccc(O)cc2)c2ccccc21 | 293T-ACE2 | – | 40 (unit not given) | – | CC50 | > 2.5 µM |
| C[C@H](NC(=O)[C@H](CCCNC(=N)N)NC(=O)[C@H](Cc1c[nH]c2ccccc12)NC(=O)[C@H](CCCNC(=N)N)NC(=O)[C@H](Cc1c[nH]c2ccccc12)NC(=O)[C@H](Cc1c[nH]c2ccccc12)NC(=O)[C@H](Cc1c[nH]c2ccccc12)NC(=O)[C@H](CCCNC(=N)N)NC(=O)[C@H](Cc1c[nH]c2ccccc12)NC(=O)[C@@H](N)CCCNC(=N)N)C(N)=O | HD11 macrophages | – | – | – | LC50 | 110 µM |
| Nc1cnn(-c2ccccc2)c(=O)c1Cl | HEK293-H PPARγ-UAS-bla cells | cell confluency | 24 h, nominal concentration | relative to: baseline IC10 over IC10 | toxic ratio | 1.71 |
| O=c1ccc2ccccc2o1 | HepG2 | refers to: mitochondrial reserve capacity | concentration not given, 1 h, Seahorse mitochondrial toxicity panel | – | probability of response | 16.2% |
| CC(C)(c1ccc(O)cc1)c1ccc(O)cc1 | HepG2 spheroids | annexin V-FITC/PI flow cytometry | 40 µM, 24 h | – | necrotic cells | 11.1 ± 1.79% |
| N#C[C@@]1(n2ccc(N)nc2=O)O[C@H](CO)[C@@H](O)[C@H]1O | human PBM cells | – | – | – | CC50 | 97.6 ± 4.4 µM |
| Cc1cc(C(C)(C)c2ccc(O)c(C)c2)ccc1O | HepG2 spheroids | propidium iodide staining | concentration not given, 24 h | – | necrotic cells | decreased |
| Nc1nc(CC(O)c2ccccc2C(F)(F)F)c(Br)c(=O)[nH]1 (stereo not drawn) | HEL human embryonic lung fibroblasts | cell morphology alteration | – | – | minimum cytotoxic concentration | > 100 µM |
| CC(C)(Oc1ccc(Cl)cc1)C(=O)O | HEK293-H PPARγ-UAS-bla cells | cell viability, IncuCyte imaging | 24 h, freely dissolved concentration | – | IC10 | 2450 µM |
| Oc1ccc(C2(c3ccc(O)cc3)c3ccccc3-c3ccccc32)cc1 | HepG2 spheroids, dissociated | annexin V-FITC/PI flow cytometry | 1 µM, 24 h | – | viable cells | 67.4 ± 6.74% |
| N=C(N)NCCC[C@H](NC(=O)[C@H](CCCNC(=N)N)NC(=O)[C@H](CCCCN)NC(=O)[C@H](CCCNC(=N)N)NC(=O)[C@H](Cc1ccccc1)NC(=O)[C@H](Cc1ccc(O)cc1)NC(=O)[C@H](CCCNC(=N)N)NC(=O)[C@H](CCCNC(=N)N)NC(=O)[C@H](CCCNC(=N)N)NC(=O)[C@H](CCCNC(=N)N)NC(=O)[C@H](CCCNC(=N)N)NC(=O)[C@H](Cc1ccc(O)cc1)NC(=O)[C@H](CCCNC(=N)N)NC(=O)[C@@H](N)CCCNC(=N)N)C(=O)O | DF-1 | – | 5 µM, 24 h | relative to: untreated cells | viability | 100.9 ± 0.5% |

A few entries again:
| Structure (SMILES) | cell line | assay | conditions | how to read | endpoint | result |
| --- | --- | --- | --- | --- | --- | --- |
| O=S(=O)(O)C(F)(F)C(F)(F)C(F)(F)C(F)(F)C(F)(F)C(F)(F)C(F)(F)C(F)(F)F | hTERT-RPTEC parental | – | concentration not given, 96-well plate | – | LDH release | 28.8 mU/mL and 17.1 mU/mL and 26.1 mU/mL and 26.6 mU/mL |
